Measurements collected from several papers.
Every numbered part comes from another study and shows a few of its results, in no order.

Block 1
Target: Histone acetyltransferase KAT6A, winged helix 2, GST fusion (KAT6A, Homo sapiens, UniProt Q92794, residues 85-181)
Technique: protein binding microarray
Form: double-stranded DNA, one strand shown
Medium: in vitro
Tested at: not given
Setting: 8-mer, flanks averaged, mean of 2 arrays, mostly near background
Baseline: not given
Direction: higher = stronger binding
Residues (chain): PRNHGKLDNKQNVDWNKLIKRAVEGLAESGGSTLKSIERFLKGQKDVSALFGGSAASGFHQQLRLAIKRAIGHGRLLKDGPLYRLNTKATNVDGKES
Strand	E-score
CGTTGTCA	-0.145
AGGCACCG	0.0613
CACCGTCA	-0.00169
CACGCCCG	0.123
TATATAAA	0.199
CATTAGAC	-0.181
TTACGCAA	0.0729
AAACGTAC	-0.141
GACCATCC	-0.056
ATGGCGCA	0.0333
CGTTTCAG	-0.0115
GTCTTCTA	-0.115
ATCTAGCC	-0.16
GCCGTATA	0.147
AAGGCACA	0.111
AATGGTTG	-0.0182
AGTTACTG	-0.196
GCAACTGC	0.23
TTAATAAA	0.208
ATTATTAG	-0.00946
CCCGCGGC	0.189
CATAACAG	-0.0637
ACATTTGG	-0.244
GTCCTGCA	-0.0762
TATGCACA	-0.0518

Block 2
Target: Interferon regulatory factor 5, full length, phosphomimetic (IRF5, Homo sapiens, UniProt Q13568-2, residues 1-514, S451D/S453D/S456D/S462D)
Technique: protein-binding microarray
Form: double-stranded DNA, one strand shown
Medium: in vitro
Tested at: 940 nM top
Setting: 60-bp whole probe
With: salmon DNA 0.4 mg/ml
Baseline: random background probes
Direction: higher = stronger binding
Shared flanks, not repeated: GCCTAGCAC … GTCTTGATTCGCTTGACGCTGCTG
Strand	fitted relative affinity [z-score]
GACGGACTGGAATTTCGGGACGTGCTA	-0.352
CTGCATTACAGCTATTTTTAGGTGCTA	0.443
TCATCATTGCCTATTTTTCCGTGCTAG	0.91
GACGGTTTCGGTATCGGGTCGTGCTAG	15.5
TGGTTTTACTTTCTATCTCTGTGCTAG	3.67
GGCTGTTTGATCTTGATCCTGTGCTAG	-0.305
TTAGATAACAGTATCGATTAGTGCTAG	4.09
GACGGACTGATTTTCCTGACGTGCTAG	-0.247
TTAGATTCCAGACTGGATTAGTGCTAG	-0.556
TTAGGTTTCGACTACCGGTTAGTGCTA	9.9
TTAGATATCGGGACTGGATCAGTGCTA	0.17
GACGATGTCAGTTCCGAGACGTGCTAG	0.0479
TTTCATTTTTTTTCATCATTGTGCTAG	6.04
GACCGACTGGGGACTGGGGACGTGCTA	-0.0787
TTACGACTGCTTCTCCTTTAGTGCTAG	0.829
TCACCTATAGGTTCAACACTGTGCTAG	-0.416
TTAGGTATCGGTATGGGTTAGTGCTAG	10.6
GACGGTTTAGACACTGGGGACGTGCTA	0.344
GACGAACTGGGGTTTAGAGACGTGCTA	-0.0742
ATATATGTGTATATATAATAGTGCTAG	0.344
ATGGTCCTCTCTCTATTCAGGTGCTAG	0.87
GACGAACTGAGTATCGAGCCGTGCTAG	0.61

Block 3
Target: Protein C-ets-1 (ETS1, Homo sapiens, UniProt P14921, residues 1-441, K379A, full length assumed)
UniProt P14921, sequence (whole entry, unmodified, looked up): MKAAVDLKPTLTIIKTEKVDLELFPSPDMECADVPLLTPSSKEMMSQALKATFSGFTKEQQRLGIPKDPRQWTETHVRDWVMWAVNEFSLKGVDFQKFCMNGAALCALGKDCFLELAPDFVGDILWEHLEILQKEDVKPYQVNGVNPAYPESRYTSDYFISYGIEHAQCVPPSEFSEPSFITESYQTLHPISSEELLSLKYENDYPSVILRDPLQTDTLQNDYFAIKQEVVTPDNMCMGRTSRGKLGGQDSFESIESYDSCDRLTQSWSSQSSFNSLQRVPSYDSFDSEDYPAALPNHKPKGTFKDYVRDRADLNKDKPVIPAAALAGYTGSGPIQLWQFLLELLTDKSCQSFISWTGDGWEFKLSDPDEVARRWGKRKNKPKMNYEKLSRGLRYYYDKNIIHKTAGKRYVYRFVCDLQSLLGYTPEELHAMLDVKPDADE
Technique: protein-binding microarray
Form: double-stranded DNA, one strand shown
Medium: in vitro
Tested at: not given
Setting: k-mer, scored over probes, only values ≥0.25
Direction: higher = stronger binding
Strand	E-score
CCGACGAA	0.301
ATAGTACC	0.328
GTCGGTTA	0.274
CGACAACA	0.278
ATCCGTTG	0.279
ATCCCCGC	0.25
AACAACAA	0.264
CACCGGGA	0.425
CGGCGCCG	0.329
AACCCATA	0.253
AACCTTTA	0.257
CACTTCCG	0.404
ATGATGTA	0.265
ATAACCGG	0.373
AGCCGGAA	0.341
AAATATCT	0.275
CCGGACAA	0.283
ACGCCGGA	0.302

Block 4
Target: RNA binding protein fox-1 homolog 2, RRM domain, GST-SBP tag (RBFOX2, Homo sapiens, UniProt O43251-10, residues 100-194)
Technique: RNA Bind-n-Seq
Form: RNA
Medium: in vitro
Tested at: 365 nM
Setting: natural RNA segment, single round, ends assumed
Baseline: no-protein control
Direction: higher = stronger binding
Shared flanks, not repeated: GGGAGUUCUACAGUCCGACGAUC … UGGAAUUCUCGGGUGCCAA
Target sequence (chain): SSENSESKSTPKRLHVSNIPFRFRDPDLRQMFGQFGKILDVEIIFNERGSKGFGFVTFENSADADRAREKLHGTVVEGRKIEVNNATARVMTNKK
Strand	RBNS enrichment (R)
GUCCCCAUCUGUCCUCUUGAUGUGAGAGAGACUCUGAGACUUCUUCCAUCGCAAUGACCUGUAUUAAACACAAGCCCCCCAAGCAAAAGAAGAGGUUGAGUUUGCUGCCA	0.728
UUUAAAACCAUCUUGAAAGAACCCUUAUUGGCAUAUGCAGGAGACAUCUGCUCAUUGUCUAAUGCCUGACCCCCAUUCAUUUAGUUAUUCAAUAUAGACUUGCCCAAUUA	0.506
CCCUGCCUAGCUUAAAGUAUAGUCAUGAGAUGGAGUUGGGAGCACUAUACUGGUCACUUACCACCUGGGGCCUCAGUUUCCUGAUCUGCGAAAGGGGCAAGGGCUAAGGC	0.361
CCUUUGCCUCCCAAGUGCUGGGACUAAAGGUGUGUGCCACCACUGUCCAGCUUGUGACCAGCCUUUUAAAAGUGCCACUCACUCCCUGACUGCCUUCAGCUGUAAUUAAG	0.37
UAUGCAGGCGUGGUGUUGGCAGCCUCACUGUAGAGCAGGGUGCACGGGUCUGUAGUUGAGGACGAGAUUGAGAGCUGUUAAUCCACCAAAUGCAAUGGCUCAGAACAAUU	1
UCACUGCUUCUUGCCAGUUAUGACUGUCAUUCCCUUCGCACCAGCUGUACCACUCCCAGAGGUCUGAGCAGGCCACAGAUAGCCCCCACCUUGCAGAGCAGGAAGUUUAG	0.607
AAAUUUGCUUUUCCCCAUAGCAUGUUAGGAAGGAAGUACAGGUCGUUACCUAAGCUAGCGUGGGCUUCCAGUUGCCUUAAUAGAAGUACUCAAGUCUCUUGGGUAGAGAU	49
GUCUUUAAGCCACGUCUCUGAAAUCUUGUGAGGGGUGAAGAAAGAGGACUGGAGAUGAAUGGACAAUAUGAUCAAAGACUCAUUUUUAGGCCUUGAAGAGGCCGAGCUUU	0.81
CAGAUGAAACCUGUAUAUUAGGUGUUCAUGUGGUUAUUUUGUAUUUAAAGAUCAAAUUAUUUGACUAUUGCUAGACAUUUCUAUACUCUGUUGUAACACUGAGGUAUCUC	0.871
GCAGGCUUUAGAGGGAGAACCCAAAUUUUCAAUUAUGUUGGCUUUUUAUAAAGCUUGAGUUAUGUAAGAUUUAAAUAAAAGUUUGCUACCAAGAUGAUUGCCUUAUUGAA	3.3
AGCGGUGGAUGCUGCAUAAUCCACCUGGGUACUUCAGCCUUGCGUUUCCACAGCCUUCAGCCUGUUCUAGAACGAUCACUGCCUUACCCCUGCUGCUGCAGUGGUGUGAG	0.347
UAUACACCAAAAAGAAAUCUUUACUUUCCUUGUGUUAUAAAAAUAAUAAAAAUAUUUUACUAGUAUGAAAUCACAAGCAUGUUUGACUUCAGUGGGACAUUUGACAGCUG	0.877

Some of these lines once more (block 4):
Strand	RBNS enrichment (R)
CCCUGCCUAGCUUAAAGUAUAGUCAUGAGAUGGAGUUGGGAGCACUAUACUGGUCACUUACCACCUGGGGCCUCAGUUUCCUGAUCUGCGAAAGGGGCAAGGGCUAAGGC	0.361
CCUUUGCCUCCCAAGUGCUGGGACUAAAGGUGUGUGCCACCACUGUCCAGCUUGUGACCAGCCUUUUAAAAGUGCCACUCACUCCCUGACUGCCUUCAGCUGUAAUUAAG	0.37
UAUGCAGGCGUGGUGUUGGCAGCCUCACUGUAGAGCAGGGUGCACGGGUCUGUAGUUGAGGACGAGAUUGAGAGCUGUUAAUCCACCAAAUGCAAUGGCUCAGAACAAUU	1
UCACUGCUUCUUGCCAGUUAUGACUGUCAUUCCCUUCGCACCAGCUGUACCACUCCCAGAGGUCUGAGCAGGCCACAGAUAGCCCCCACCUUGCAGAGCAGGAAGUUUAG	0.607
AAAUUUGCUUUUCCCCAUAGCAUGUUAGGAAGGAAGUACAGGUCGUUACCUAAGCUAGCGUGGGCUUCCAGUUGCCUUAAUAGAAGUACUCAAGUCUCUUGGGUAGAGAU	49
GUCUUUAAGCCACGUCUCUGAAAUCUUGUGAGGGGUGAAGAAAGAGGACUGGAGAUGAAUGGACAAUAUGAUCAAAGACUCAUUUUUAGGCCUUGAAGAGGCCGAGCUUU	0.81
CAGAUGAAACCUGUAUAUUAGGUGUUCAUGUGGUUAUUUUGUAUUUAAAGAUCAAAUUAUUUGACUAUUGCUAGACAUUUCUAUACUCUGUUGUAACACUGAGGUAUCUC	0.871
GCAGGCUUUAGAGGGAGAACCCAAAUUUUCAAUUAUGUUGGCUUUUUAUAAAGCUUGAGUUAUGUAAGAUUUAAAUAAAAGUUUGCUACCAAGAUGAUUGCCUUAUUGAA	3.3
AGCGGUGGAUGCUGCAUAAUCCACCUGGGUACUUCAGCCUUGCGUUUCCACAGCCUUCAGCCUGUUCUAGAACGAUCACUGCCUUACCCCUGCUGCUGCAGUGGUGUGAG	0.347
UAUACACCAAAAAGAAAUCUUUACUUUCCUUGUGUUAUAAAAAUAAUAAAAAUAUUUUACUAGUAUGAAAUCACAAGCAUGUUUGACUUCAGUGGGACAUUUGACAGCUG	0.877
